Published values pooled from the literature.
Compare with care: the assays were run in different laboratories. ± marks the error that the study gave.
Tspo: Translocator protein (Tspo, Rattus norvegicus, UniProt P16257)
LGALS3: Galectin-3 (LGALS3, Homo sapiens, UniProt P17931)
GLP1R: Glucagon-like peptide 1 receptor (GLP1R, Homo sapiens, UniProt P43220)

SMILES	target	test	system	conditions	scale	measurement	value
CCc1cc(C)nc2c(CC(=O)N(CC)CC)c(-c3ccc(OCC[18F])cc3)nn12	Tspo	two-tissue compartment model	rat C6 glioma model, brain	60 min dynamic PET	–	k2 efflux rate constant	7.17 ± 0.835 min⁻¹
CC1=C(/C=C/C(C)=C/C=C/C(C)=C/C=O)C(C)(C)CCC1	Cyclic nucleotide-gated channel alpha-1 (CNGA1, Bos taurus, UniProt Q00194)	ion current, inhibitor, patch clamp	–	–	–	time constant of inhibition	854 ± 105 s
CC(C)CCC[C@@H](C)[C@H]1CC[C@H]2[C@@H]3CC=C4C[C@@H](OS(=O)(=O)O)CC[C@]4(C)[C@H]3CC[C@]12C	Prothrombin (F2, Homo sapiens, UniProt P00734)	Spectrozyme TH hydrolysis	–	490 µM, pH 7.4, 25 °C	–	Vmax	10.5 ± 0.8 mAU/min
CO[C@@H]([C@@H](O)[C@H](O)C(=O)CO)[C@@H](C)O	3-dehydroquinate synthase, chloroplastic (DHQS, Arabidopsis thaliana, UniProt Q8VYV7)	enzyme activity	–	concentration not given	–	activity	inactive
Cc1ncsc1-c1ccc([C@H](C)NC(=O)[C@@H]2C[C@@H](O)CN2C(=O)[C@@H](N)C(C)(C)C)cc1	von Hippel-Lindau disease tumor suppressor, with elongin B/C (VHL, Homo sapiens, UniProt P40337)	fluorescence polarization	–	–	–	FP interference concentration	≥ 370 nM
N#Cc1cccc(/C=C/C(=O)c2ccc(O)cc2)c1	Protein disulfide-isomerase (P4HB, Homo sapiens, UniProt P07237)	target stabilization, CETSA	U-87 MG	100 µM, 2 h	–	thermal shift	1 to 2 °C
O=C(O)c1cc([N+](=O)[O-])ccc1NCCCc1ccccc1	Cystic fibrosis transmembrane conductance regulator (CFTR, Homo sapiens, UniProt P13569, K1250A)	chloride current, pore blocker, inside-out patch clamp	K1250A	210 µM, at -80 mV	baseline: control	current	13%
CC(Oc1cc(-c2ccccc2)nc2cnccc12)C(=O)N(C)c1ccccc1 (stereo not shown)	Tspo	binding	rat brain homogenate	pKi minus clogD	–	lipophilic efficiency	5.4 ± 0.3
O=c1c2sccc2n(CC2COc3ccccc3O2)c(=O)n1O (stereo not shown)	Flap endonuclease 1 (Homo sapiens, UniProt P39748)	SPR	–	Mg2+ bound	–	residence time	3 min
COc1c(F)c(F)c(C(=O)N[C@H]2[C@@H](O)[C@@H](CO)O[C@@H](S[C@@H]3O[C@H](CO)[C@H](O)[C@H](NC(=O)c4c(F)c(F)c(OC)c(F)c4F)[C@H]3O)[C@@H]2O)c(F)c1F	LGALS3	ITC	–	–	–	ΔH	-12.9 ± 0.717 kcal/mol
Cn1ccc2c(N3CCN(CCCCOc4ccc5c(c4)NC(=O)CC5)CC3)cccc21	D(2) dopamine receptor, long isoform (DRD2, Homo sapiens, UniProt P14416)	arrestin recruitment, BRET time course	human cells	–	–	time to peak	15 to 60 min
CC(C)C[C@H](NC(=O)[C@H](Cc1ccc(O)cc1)NC(=O)[C@@H](CCCNC(=N)N)NC(=O)[C@@H](CO)NC(=O)[C@H](Cc1ccccc1)NC(=O)[C@H](CC1CCCCC1)NC(=O)[C@H](CC(=O)O)NC(=O)CN1CCCN2CCN(CCCN(CC(=O)O)CC2)CC1)C(=O)N[C@@H](Cc1c[nH]c2ccccc12)C(=O)N[C@@H](CO)C(=O)O (single isomer, unassigned)	Urokinase plasminogen activator surface receptor (Homo sapiens, UniProt Q03405)	binding, SPR	–	–	–	kon	600000 M⁻¹ s⁻¹
CC(/C=C/C(O)=C1/C(=O)CNC1=O)=C\[C@@H](C)[C@H]1O[C@@]2(C)O[C@H](C[C@@H]3O[C@@]32C)[C@@H]1C	Cytochrome P450 TamI (Streptomyces sp. 307-9, UniProt D3Y1J3)	substrate	–	–	–	Km	34.9 ± 5.5 µM
CCCCCCCCCCCSc1nc2c([nH]1)c(=O)n(C)c(=S)n2C	Androgen receptor (AR, Homo sapiens, UniProt P10275)	reporter gene, antagonist, PSA-luciferase	HeLa-A6	10 µM, 24 h, together with: 5 nM dihydrotestosterone	baseline: maximal activity	remaining activity	91%
COc1ccc(CNc2nc(-c3ccc(OC)c(OC)c3)cc(C(F)(F)F)n2)cc1	GLP1R	cAMP accumulation, positive allosteric modulator	HEK-293T overexpressing GLP1R	together with: EC20 GLP-1	–	Emax	54 ± 4.3%
COc1cccc(C(=O)N[C@H]2[C@@H](O)[C@@H](CO)O[C@@H](S[C@@H]3O[C@H](CO)[C@H](O)[C@H](NC(=O)c4cccc(OC)c4)[C@H]3OS(=O)(=O)O)[C@@H]2O)c1	LGALS3	ITC	–	Kd fixed from FP	–	ΔH	-12.72 ± 0.0956 kcal/mol
CCCN1C(=O)CCc2cc(NS(=O)(=O)Cc3ccc(C)cc3)ccc21	Abscisic acid receptor PYR1, with HAB1 (PYR1, Arabidopsis thaliana, UniProt O49686)	PYR1-HAB1 interaction, agonist, AlphaScreen	–	–	baseline: pyrabactin	potency relative to pyrabactin	7.6 fold
COc1ccc(-c2cc(C(F)(F)F)nc(SCC(=O)N(C)c3ccccc3)n2)cc1OC	GLP1R	efficacy cooperativity, allosteric modulator	HEK-293T overexpressing GLP1R	together with: GLP-1(9-36)	–	cooperativity factor beta	4.5
N#Cc1cnc(Nc2nc3ccccc3o2)nc1-c1ccccc1F	Metabotropic glutamate receptor 5 (Grm5, Rattus norvegicus, UniProt P31424)	calcium mobilization, negative allosteric modulator	–	together with: glutamate EC80	baseline: maximal glutamate response	maximal response	1.8 ± 0.4%

SMILES	target	test	system	conditions	scale	measurement	value
Cc1ccnc(-c2cc(C(=O)NCCCCn3cc(CN(CC(N)=O)C(=O)CN(CCCCN)C(=O)CN(CCCCN)C(=O)CN(C(=O)CN(CC(C)C)C(=O)CN(CC(C)C)C(=O)CN(CCc4c[nH]c5ccccc45)C(=O)CN(CCCCN)C(=O)C(N)CCCCNC(=O)CCCCCNc4ncnc5[nH]cnc45)C(C)c4ccccc4)nn3)ccn2)c1 (stereo not shown)	26S proteasome regulatory subunit 10B (PSMC6, Homo sapiens, UniProt P62333)	–	HeLa	concentration not given, in the dark	–	proteasome peptidase activity	no effect
CS(=O)(=O)CCC1NC(=O)C(Cc2ccco2)NC(=O)C(CC2CC2)NC(=O)C=CC(=O)NC(C(N)=O)CCNC1=O (stereo not shown)	Receptor tyrosine-protein kinase erbB-4 (ERBB4, Homo sapiens, UniProt Q15303)	DNA-templated library selection	–	one selection round	–	enrichment factor	1
NCCCC[C@H](NC(=O)[C@H](C/C=C\C[C@H](NC(=O)[C@@H]1CCCN1)C(=O)N[C@@H](CCCCN)C(=O)NCCCN)NC(=O)[C@@H]1CCCN1)C(=O)NCCCN	(CUG)10 RNA	SPR	–	–	–	residence time	0.333 min
O=C(Nc1ccc(C(F)(F)F)cc1Cl)c1cc(Cl)ccc1O	Androgen receptor, AR-V7 isoform (AR, Homo sapiens, UniProt P10275)	degrader	–	concentration not given, together with: cycloheximide 50 µg/mL	baseline: untreated cells	protein degradation	increased
CCOCCNC(=O)N1CCC[C@H](c2n[nH]c(-c3ccccc3)n2)C1	Aromatase (CYP19A1, Homo sapiens, UniProt P11511)	enzyme activity, inhibitor, MFC to HFC conversion	–	20 µM, together with: MFC substrate	–	apparent Km	57.6 µM
CNc1ccccc1C(=O)O[C@H]1C[C@H](n2cnc3c(N)ncnc32)O[C@@H]1COP(=O)(O)OP(=O)(O)O	Unconventional myosin-Va (Gallus gallus, UniProt Q02440, D297C/G292C/I296C/S293C/V295G)	van't Hoff analysis	–	concentration not given, together with: 10 mM Mg2+	–	∆H of ligand binding	-7.6 ± 1.4 kcal/mol
Cc1cc(CC(=O)N2C[C@H](O)C[C@H]2C(=O)NCc2ccccc2)on1	von Hippel-Lindau disease tumor suppressor, with Elongin B/C (VHL, Homo sapiens, UniProt P40337)	isothermal titration calorimetry	–	25 °C	–	entropic term (−TΔS)	7.8 ± 0.2 kcal/mol
[3H]C([3H])([3H])c1cnccc1CN1C[C@@H](c2cc(F)c(F)c(F)c2)CC1=O	Synaptic vesicle glycoprotein 2A (SV2A, Homo sapiens, UniProt Q7L0J3)	radioligand binding, autoradiography	human, post-mortem insula	5 nM	–	specific binding	240 fmol/mg
CO[C@H]1O[C@H](CO)[C@@H](O)[C@H](O)[C@@H]1O	Fucose-binding lectin PA-IIL (lecB, Pseudomonas aeruginosa, UniProt Q9HYN5)	surface plasmon resonance	–	–	–	complex half-life	45 s
CC[C@H](C)[C@H](NC(=O)[C@@H]1CCCN1C(=O)[C@H](CCCCN)NC(=O)[C@H](CO)NC(=O)[C@H](CO)NC(=O)[C@H](Cc1ccc(O)cc1)NC(=O)[C@H](CO)NC(=O)[C@H](C)NC(=O)[C@H](CO)NC(=O)[C@@H](N)Cc1ccccc1)C(=O)N[C@@H](CCC(N)=O)C(=O)N[C@H](C(=O)N[C@@H](CCC(N)=O)C(=O)N[C@H](C(=O)N[C@@H](CO)C(=O)N[C@@H](CC(N)=O)C(=O)NCC(=O)N[C@@H](CCSC)C(=O)N[C@@H](CC(=O)O)C(=O)N[C@@H](CC(N)=O)C(=O)N[C@@H](C)C(=O)N[C@@H](CO)C(=O)N[C@@H](C)C(=O)N1CCC[C@H]1C(=O)N[C@H](C(=O)O)C(C)C)C(C)C)[C@@H](C)O	Peptide cyclase 1 (Gypsophila vaccaria, UniProt R4P353, S562A)	ITC	–	concentration not given, pH 8.0, 25 °C	–	binding stoichiometry	1
O=C(O)[C@H]1O[C@@H](O[C@H]2C=Cc3c(cc4ccc5cccc6c7ccccc7c3c4c56)[C@@H]2O)[C@H](O)[C@@H](O)[C@@H]1O	UDP-glucuronosyltransferase 1A1 (UGT1A1, Homo sapiens, UniProt P22309)	glucuronidation, substrate	UGT-expressing HEK293 homogenate	normalized to UGT expression	–	kcat	0.00383 ± 0.000667 s⁻¹
CCCCn1c(-c2ccc3nn(CCC)c(Cc4ccc(-c5ccccc5-c5nnn[nH]5)cc4)c3c2)nc2ccccc21	Probable G-protein coupled receptor 132 (GPR132, Homo sapiens, UniProt Q9UNW8)	antagonist	yeast cells	together with: SB-583831 agonist	–	Schild slope	1.9
CCC(=O)N(C)c1ccc(Cl)c(Cl)c1	Aryl hydrocarbon receptor (AHR, Homo sapiens, UniProt P35869)	reporter gene, agonist	–	100 µM	baseline: vehicle	fold activation	26 fold
COC(=O)CC1N=C(c2ccc(Cl)cc2)c2c(sc(C(=O)NCCCCCNc3cccc4c3C(=O)N(C3CCC(=O)NC3=O)C4=O)c2C)-n2c(C)nnc21 (stereo not shown)	Bromodomain-containing protein 2 (BRD2, Homo sapiens, UniProt P25440)	degrader, western blot	HEK-293T	5 h	–	degradation	inactive
CN(C1COC1)C(C)(C)/C=C(\C#N)C(=O)N1CCC[C@H]1Cn1nc(-c2ccc(Oc3ccccc3)cc2F)c2c(N)ncnc21	Tyrosine-protein kinase (Rattus norvegicus, UniProt Q5S255)	–	rat, PBMC	oral, 40 mg/kg, 1 h, together with: BODIPY probe	–	target occupancy	74 ± 9%
O=C(O)C1OC(OC2C(C(=O)O)OC(OC3C(C(=O)O)OC(OC4C(C(=O)O)OC(O)C(O)C4O)C(O)C3O)C(O)C2O)C(O)C(O)C1O (stereo not shown)	Beta-lactoglobulin (LGB, Bos taurus, UniProt P02754, A134V/G80D)	isothermal titration calorimetry	–	concentration not given, pH 2.65, 37 °C, 50 mM KH2PO4	ligand per protein	binding stoichiometry	5
CC(C)(C)CCN1C[C@@H]2[C@@H](CNC(=O)c3cc(Cl)cc(Cl)c3)[C@@H]2C1.Cl	Voltage-dependent L-type calcium channel subunit alpha-1F (Homo sapiens, UniProt O60840)	calcium current, whole-cell patch clamp	HEK-293T cells	50 nM, holding potential -50 mV, together with: β2 and α2δ subunits	–	half-activation voltage	1.04 ± 1.6 mV
Cc1ccc(C)c2sc(NC(=O)C3CCN(S(=O)(=O)c4ccc(F)cc4)CC3)nc12	N-acyl-phosphatidylethanolamine-hydrolyzing phospholipase D (Napepld, Mus musculus, UniProt Q8BH82)	activator	RAW264.7	concentration not given, together with: PED-A1	–	enzyme activity	increased

Repeated from above:
SMILES	target	test	system	conditions	scale	measurement	value
N#Cc1cnc(Nc2nc3ccccc3o2)nc1-c1ccccc1F	Metabotropic glutamate receptor 5 (Grm5, Rattus norvegicus, UniProt P31424)	calcium mobilization, negative allosteric modulator	–	together with: glutamate EC80	baseline: maximal glutamate response	maximal response	1.8 ± 0.4%
Cc1ccnc(-c2cc(C(=O)NCCCCn3cc(CN(CC(N)=O)C(=O)CN(CCCCN)C(=O)CN(CCCCN)C(=O)CN(C(=O)CN(CC(C)C)C(=O)CN(CC(C)C)C(=O)CN(CCc4c[nH]c5ccccc45)C(=O)CN(CCCCN)C(=O)C(N)CCCCNC(=O)CCCCCNc4ncnc5[nH]cnc45)C(C)c4ccccc4)nn3)ccn2)c1 (stereo not shown)	26S proteasome regulatory subunit 10B (PSMC6, Homo sapiens, UniProt P62333)	–	HeLa	concentration not given, in the dark	–	proteasome peptidase activity	no effect
